Measurements collected from several papers.
Parts stem from different laboratories: compare values within a part only. “And” joins repeats or separate records; there may be more than shown.
Chain of UniProt P41743 (whole entry, looked up): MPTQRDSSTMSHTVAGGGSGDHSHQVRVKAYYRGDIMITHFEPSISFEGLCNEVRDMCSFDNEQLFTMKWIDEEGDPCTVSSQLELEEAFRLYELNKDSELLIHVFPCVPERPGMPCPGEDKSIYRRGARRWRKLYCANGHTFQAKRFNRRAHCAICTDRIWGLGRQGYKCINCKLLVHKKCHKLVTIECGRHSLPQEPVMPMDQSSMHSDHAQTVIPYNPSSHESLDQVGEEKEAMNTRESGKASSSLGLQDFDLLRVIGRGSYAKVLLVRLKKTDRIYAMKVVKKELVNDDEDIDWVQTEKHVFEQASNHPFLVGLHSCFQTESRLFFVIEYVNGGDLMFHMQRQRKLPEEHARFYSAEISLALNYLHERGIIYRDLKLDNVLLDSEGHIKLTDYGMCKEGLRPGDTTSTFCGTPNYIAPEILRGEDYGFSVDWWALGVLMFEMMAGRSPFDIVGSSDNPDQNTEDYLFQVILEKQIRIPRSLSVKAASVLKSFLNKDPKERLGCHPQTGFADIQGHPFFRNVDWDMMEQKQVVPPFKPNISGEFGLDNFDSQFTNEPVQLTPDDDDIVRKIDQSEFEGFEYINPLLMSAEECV
Chain of UniProt O94804 (whole entry, looked up): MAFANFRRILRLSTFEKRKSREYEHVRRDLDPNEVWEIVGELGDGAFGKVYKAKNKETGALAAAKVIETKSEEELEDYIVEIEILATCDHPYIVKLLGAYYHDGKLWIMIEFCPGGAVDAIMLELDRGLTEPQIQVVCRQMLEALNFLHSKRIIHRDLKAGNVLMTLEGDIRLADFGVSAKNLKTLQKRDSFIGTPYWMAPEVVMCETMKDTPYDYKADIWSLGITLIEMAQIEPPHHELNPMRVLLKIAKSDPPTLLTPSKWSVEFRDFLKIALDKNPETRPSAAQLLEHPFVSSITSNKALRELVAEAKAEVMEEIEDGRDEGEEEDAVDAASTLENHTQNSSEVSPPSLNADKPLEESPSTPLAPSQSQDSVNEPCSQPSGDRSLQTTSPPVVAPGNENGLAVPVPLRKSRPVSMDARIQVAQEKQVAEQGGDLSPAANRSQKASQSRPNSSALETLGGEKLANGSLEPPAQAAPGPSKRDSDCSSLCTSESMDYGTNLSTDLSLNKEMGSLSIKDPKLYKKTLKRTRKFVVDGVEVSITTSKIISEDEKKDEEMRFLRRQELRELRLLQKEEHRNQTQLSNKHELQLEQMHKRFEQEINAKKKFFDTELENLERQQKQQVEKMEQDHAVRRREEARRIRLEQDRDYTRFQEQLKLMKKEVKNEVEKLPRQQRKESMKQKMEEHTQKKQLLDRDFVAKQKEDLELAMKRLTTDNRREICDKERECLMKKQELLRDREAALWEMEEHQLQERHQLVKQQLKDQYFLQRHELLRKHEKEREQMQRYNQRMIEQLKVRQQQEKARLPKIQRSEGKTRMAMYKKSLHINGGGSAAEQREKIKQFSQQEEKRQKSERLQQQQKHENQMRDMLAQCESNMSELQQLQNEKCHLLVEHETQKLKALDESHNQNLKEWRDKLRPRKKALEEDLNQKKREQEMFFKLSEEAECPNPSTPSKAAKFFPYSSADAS
Chain of UniProt P52333 (whole entry, looked up): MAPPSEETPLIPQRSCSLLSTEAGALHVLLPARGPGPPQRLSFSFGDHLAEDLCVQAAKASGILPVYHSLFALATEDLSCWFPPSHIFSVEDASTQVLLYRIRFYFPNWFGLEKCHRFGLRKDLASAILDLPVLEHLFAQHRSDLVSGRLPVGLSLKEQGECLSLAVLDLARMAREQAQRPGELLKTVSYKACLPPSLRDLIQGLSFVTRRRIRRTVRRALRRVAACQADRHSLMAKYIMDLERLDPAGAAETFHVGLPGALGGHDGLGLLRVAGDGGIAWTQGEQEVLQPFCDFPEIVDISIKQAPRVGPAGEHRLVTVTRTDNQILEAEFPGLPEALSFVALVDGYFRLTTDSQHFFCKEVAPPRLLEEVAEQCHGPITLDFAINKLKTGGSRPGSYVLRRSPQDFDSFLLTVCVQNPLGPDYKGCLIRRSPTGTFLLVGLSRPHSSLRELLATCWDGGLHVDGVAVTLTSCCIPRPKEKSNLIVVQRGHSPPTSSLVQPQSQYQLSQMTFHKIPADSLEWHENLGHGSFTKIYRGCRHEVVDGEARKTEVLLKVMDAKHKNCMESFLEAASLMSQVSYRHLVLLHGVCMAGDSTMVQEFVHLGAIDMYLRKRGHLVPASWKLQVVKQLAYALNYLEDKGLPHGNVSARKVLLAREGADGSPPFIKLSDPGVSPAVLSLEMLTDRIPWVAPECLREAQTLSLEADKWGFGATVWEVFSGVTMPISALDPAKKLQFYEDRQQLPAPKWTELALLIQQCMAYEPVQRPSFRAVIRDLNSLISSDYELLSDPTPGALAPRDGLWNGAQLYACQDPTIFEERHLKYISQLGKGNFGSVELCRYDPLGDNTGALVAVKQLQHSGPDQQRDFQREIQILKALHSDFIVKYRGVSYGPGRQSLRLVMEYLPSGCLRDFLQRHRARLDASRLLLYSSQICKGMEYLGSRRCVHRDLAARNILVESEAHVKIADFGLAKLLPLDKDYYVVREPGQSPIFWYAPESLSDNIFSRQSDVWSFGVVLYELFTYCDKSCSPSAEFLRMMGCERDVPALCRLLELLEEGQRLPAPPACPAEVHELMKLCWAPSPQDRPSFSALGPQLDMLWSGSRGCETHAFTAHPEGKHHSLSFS
Chain of UniProt P51451 (whole entry, looked up): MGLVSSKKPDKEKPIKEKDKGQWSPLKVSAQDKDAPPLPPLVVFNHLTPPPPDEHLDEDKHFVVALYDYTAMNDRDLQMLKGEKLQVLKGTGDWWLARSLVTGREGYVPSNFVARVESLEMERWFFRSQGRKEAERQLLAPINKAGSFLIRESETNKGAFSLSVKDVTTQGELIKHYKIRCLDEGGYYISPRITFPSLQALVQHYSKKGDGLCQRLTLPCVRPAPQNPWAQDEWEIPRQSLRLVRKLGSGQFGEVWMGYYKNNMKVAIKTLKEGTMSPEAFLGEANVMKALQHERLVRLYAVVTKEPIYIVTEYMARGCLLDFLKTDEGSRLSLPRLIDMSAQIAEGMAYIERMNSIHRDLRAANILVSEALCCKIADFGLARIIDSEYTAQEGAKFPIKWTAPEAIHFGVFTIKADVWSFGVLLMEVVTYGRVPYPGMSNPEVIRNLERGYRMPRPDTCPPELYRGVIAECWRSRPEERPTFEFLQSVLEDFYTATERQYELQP
Chain of UniProt P32298 (whole entry, looked up): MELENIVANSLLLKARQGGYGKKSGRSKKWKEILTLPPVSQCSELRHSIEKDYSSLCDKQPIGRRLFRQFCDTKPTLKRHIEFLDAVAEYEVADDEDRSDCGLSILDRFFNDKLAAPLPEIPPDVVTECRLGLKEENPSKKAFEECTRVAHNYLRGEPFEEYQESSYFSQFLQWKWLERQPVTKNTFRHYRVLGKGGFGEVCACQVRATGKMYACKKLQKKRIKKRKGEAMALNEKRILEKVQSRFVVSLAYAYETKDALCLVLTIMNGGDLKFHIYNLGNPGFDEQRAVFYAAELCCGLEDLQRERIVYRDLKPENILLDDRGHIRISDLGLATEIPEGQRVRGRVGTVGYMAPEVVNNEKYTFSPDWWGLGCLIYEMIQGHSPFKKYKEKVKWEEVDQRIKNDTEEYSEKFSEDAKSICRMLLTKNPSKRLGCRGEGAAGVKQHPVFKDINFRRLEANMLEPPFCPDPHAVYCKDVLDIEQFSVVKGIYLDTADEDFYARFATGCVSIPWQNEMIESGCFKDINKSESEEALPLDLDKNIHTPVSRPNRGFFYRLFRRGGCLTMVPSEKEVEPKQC
Chain of UniProt O75460 (whole entry, looked up): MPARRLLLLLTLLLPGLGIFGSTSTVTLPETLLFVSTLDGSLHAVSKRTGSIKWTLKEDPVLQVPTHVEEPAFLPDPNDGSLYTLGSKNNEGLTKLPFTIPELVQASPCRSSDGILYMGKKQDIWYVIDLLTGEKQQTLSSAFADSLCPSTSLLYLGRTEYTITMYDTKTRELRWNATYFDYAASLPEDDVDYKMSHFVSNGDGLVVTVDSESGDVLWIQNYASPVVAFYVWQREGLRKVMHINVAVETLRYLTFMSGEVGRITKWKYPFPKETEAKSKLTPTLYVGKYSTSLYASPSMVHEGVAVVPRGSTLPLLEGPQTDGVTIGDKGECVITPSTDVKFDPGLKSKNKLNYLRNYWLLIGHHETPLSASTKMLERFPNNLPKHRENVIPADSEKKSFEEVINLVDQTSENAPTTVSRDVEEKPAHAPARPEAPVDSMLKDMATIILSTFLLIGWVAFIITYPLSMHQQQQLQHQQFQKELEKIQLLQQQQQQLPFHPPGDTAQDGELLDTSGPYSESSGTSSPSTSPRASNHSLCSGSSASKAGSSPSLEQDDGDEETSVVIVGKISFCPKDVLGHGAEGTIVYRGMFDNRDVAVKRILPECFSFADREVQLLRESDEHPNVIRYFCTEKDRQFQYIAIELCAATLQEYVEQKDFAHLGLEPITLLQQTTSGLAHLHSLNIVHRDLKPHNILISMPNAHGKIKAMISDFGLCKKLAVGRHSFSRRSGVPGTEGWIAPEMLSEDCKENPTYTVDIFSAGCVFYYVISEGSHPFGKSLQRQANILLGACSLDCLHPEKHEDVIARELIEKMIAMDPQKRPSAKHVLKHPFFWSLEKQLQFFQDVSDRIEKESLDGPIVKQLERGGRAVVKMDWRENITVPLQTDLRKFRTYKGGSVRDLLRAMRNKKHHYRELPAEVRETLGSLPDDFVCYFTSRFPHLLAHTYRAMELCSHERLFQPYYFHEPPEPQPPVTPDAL

Set 1
Compound: CC[C@@]1(c2cccc(-c3c(F)cncc3OC)c2)C2=C(Nc3n[nH]cc31)[C@H](F)C(C)(C)CC2=O (single isomer, unassigned)
Concentration: 1 µM
Measurement: remaining binding
G protein-coupled receptor kinase 4 (GRK4, Homo sapiens, UniProt P32298); kinase binding, KINOMEscan; relative to: DMSO control: 83%
Tyrosine-protein kinase JAK3, JH1 (JAK3, Homo sapiens, UniProt P52333); binding, competition with immobilised ligand: 64%
Serine/threonine-protein kinase/endoribonuclease IRE1 (ERN1, Homo sapiens, UniProt O75460); kinase binding, KINOMEscan; relative to: DMSO control: 42%
Receptor tyrosine-protein kinase erbB-3 (ERBB3, Homo sapiens, UniProt P21860); kinase binding, KINOMEscan; relative to: DMSO control: 77%
Non-receptor tyrosine-protein kinase TYK2, JH1 (TYK2, Homo sapiens, UniProt P29597); binding, competition with immobilised ligand: 66%
Tyrosine-protein kinase Yes (YES1, Homo sapiens, UniProt P07947); kinase binding, KINOMEscan; relative to: DMSO control: 100%
Serine/threonine-protein kinase 10 (STK10, Homo sapiens, UniProt O94804); binding, competition with immobilised ligand: 77%
Epidermal growth factor receptor (EGFR, Homo sapiens, UniProt P00533, del752-759); kinase binding, KINOMEscan; relative to: DMSO control: 92%
Tyrosine-protein kinase Blk (BLK, Homo sapiens, UniProt P51451); binding, competition with immobilised ligand: 74%
Protein kinase C iota type (PRKCI, Homo sapiens, UniProt P41743); kinase binding, KINOMEscan; relative to: DMSO control: 78%
Serine/threonine-protein kinase Sgk1 (SGK1, Homo sapiens, UniProt O00141); kinase binding, KINOMEscan; relative to: DMSO control: 90%
Epidermal growth factor receptor (EGFR, Homo sapiens, UniProt P00533, L861Q); binding, competition with immobilised ligand: 100%

Set 2
Structure (SMILES): Cc1ncsc1-c1ccc(C(CO)NC(=O)C2CC(O)CN2C(=O)C(C(C)C)n2cc(-c3ccc(COc4c(-c5c(C)c(F)cc6[nH]ncc56)c(C5CC5)cc5c(N6CC7CC6CN7)nc(OC6CCOCC6)nc45)cc3)nn2)cc1 (centres unmarked)
Time: 6 days
Measurement: viability
SK-CO-1; cell growth or viability, ATP luminescence; 300 pM: 104% and 111% and 106%
LCLC-97TM1; cell growth or viability, ATP luminescence; 0.1 µM: 94.6% and 92.8% and 104% and 97.6%
NCI-H1299; cell growth or viability, ATP luminescence; 10 µM: 1.01% and 1.79% and 1.6% and 3.08%
AsPC-1; CellTiter-Glo; 3 nM; relative to: DMSO: 94.7% and 93.7% and 88.8%
NCI-H1299; cell growth or viability, ATP luminescence; 0.3 µM: 113% and 108% and 93.1% and 98.2%
T24; cell growth or viability, ATP luminescence; 1 nM: 96% and 96.9% and 104% and 97%
COLO 320; cell growth or viability, ATP luminescence; 1 nM: 82.2% and 86.7% and 84.9% and 93.4%

Set 3
Structure (SMILES): COCC1CC2C(CCC3(C)C(O)CCC23)c2ccc(O)cc21 (centres unmarked)
Technique: DNA microarray
Relative to: untreated cells
Measurement: mRNA level ratio
A549; item: IL23R; 50 µM: 10.7
A549; item: OLIG2; 100 µM: 39.4
PANC-1; item: GZMK; concentration not given, higher dose arm: 1
PANC-1; item: ISG20L1; concentration not given, lower dose arm: 0.954
PANC-1; item: TMEM108; concentration not given, higher dose arm: 1
A549; item: OLIG2; 50 µM: 42.7
SK-OV-3; item: MCM6; concentration not given, higher dose arm: 0.784
SK-OV-3; item: AURKA; concentration not given, higher dose arm: 0.82
A549; item: AURKA; 50 µM: 0.748
PANC-1; item: GAPDH; concentration not given, higher dose arm: 0.988 and 0.925 and 0.977 and 0.985 and 1
PANC-1; item: CCL8; concentration not given, lower dose arm: 32.4
A549; item: DNER; 100 µM: 52.5
SK-OV-3; item: OLIG2; concentration not given, higher dose arm: 11
A549; item: MCM7; 50 µM: 0.765
A549; item: CDC25B; 100 µM: 1.31
PANC-1; item: MCM10; concentration not given, lower dose arm: 0.705
A549; item: RFC3; 100 µM: 0.652
A549; item: IL20RA; 50 µM: 11.5
PANC-1; item: CCL8; concentration not given, higher dose arm: 28.3
PANC-1; item: KIF20A; concentration not given, lower dose arm: 0.666 and 0.674 and 0.67 and 0.679 and 0.66

Set 4
Cell line: HCC1569
Effect on: CDK1 Thr14 phosphorylation
Technique: in-cell western
Concentration: 4.12 nM
Direction: lower = stronger inhibition
Measurement: phospho-CDK1 (Thr14) level
Cc1ccc(O)c(C)c1-c1cnc2[nH]c(-c3cnc(N4CCC(CN5CCN(c6cc7c(cc6F)n(C6CCC(=O)NC6=O)c(=O)n7C)CC5)CC4)nc3)cc2c1C#N (centres unmarked): 7.2 a.u. and 7.8 a.u.
Cc1ccc(O)c(C)c1-c1cnc2[nH]c(-c3cnc(N4CCC(CN5CCN(c6ccc7c(c6)C(=O)N(C6CCC(=O)NC6=O)C7=O)CC5)CC4)nc3)cc2c1C#N (centres unmarked): 17.8 a.u. and 22.8 a.u.
Cc1ccc(O)c(C)c1-c1cnc2[nH]c(-c3cnc(N4CCC5(CC4)CC(N4CCN(c6ccc(NC7CCC(=O)NC7=O)cc6F)CC4)CO5)nc3)cc2c1C#N (centres unmarked): 24.9 a.u. and 30.2 a.u.
Cc1ccc(O)c(C)c1-c1cnc2[nH]c(-c3cnc(N4CCC(CN5CCC(c6ccc(NC7CCC(=O)NC7=O)cc6F)CC5)CC4)nc3)cc2c1C#N (centres unmarked): 22.2 a.u. and 29.7 a.u.
Cc1ccc(O)c(C)c1-c1cnc2[nH]c(-c3cnc(N4CCC(CN5CCN(c6ccc(NC7CCC(=O)NC7=O)cc6F)CC5)CC4)nc3)cc2c1C#N (centres unmarked): 20.1 a.u. and 26.4 a.u.

Set 5
Structure (SMILES): CCN1/C(=C/C=C2\CCCC(/C=C/C3=[N+](CC)c4ccccc4C3(C)C)=C2NCCCCCCCCN2CCC(Nc3nc4ccccc4n3Cc3ccc(F)cc3)CC2)C(C)(C)c2ccccc21
Cell line: U-87 MG
Concentration: concentration not given
Relative to: DMSO
Measurement: log2 fold change
item: RECK mRNA: -0.955
item: LGR4 mRNA: -1.42
item: MYL6 mRNA: -1.12
item: EIF1B mRNA: 0.922
item: HECW1 mRNA: 0.98
item: NDP mRNA: -3.67
item: RPS6KA1 mRNA: -0.824
item: FOXO3B mRNA: 0.833
item: TNXB mRNA: -1.94
item: RTN1 mRNA: 1.06
item: DZIP1L mRNA: -1.46

Set 6
SMILES: CC(C)C[C@@H]1NC(=O)[C@@H](N(C)C(=O)[C@@H](NC(=O)[C@@H]2C[C@@H](F)CN2C(=O)C2(C(F)(F)F)CC(F)(F)C2)C2CC2)CCCCCCCN(C)C(=O)[C@H](Cc2cc(Cl)cnc2OC2CC2)N(C)C1=O
Host: mouse, sample A SCLC PDX
Route: oral
Dose: 100 mg/kg three times daily
Measurement: tumour volume
day 4: 138 mm3 and 150 mm3 and 134 mm3 and 103 mm3 and 124 mm3
day 28: 235 mm3 and 261 mm3 and 217 mm3 and 312 mm3 and 480 mm3
day 11: 206 mm3 and 128 mm3 and 144 mm3 and 216 mm3 and 147 mm3
day 14: 226 mm3 and 290 mm3 and 136 mm3 and 183 mm3

Some of these lines once more (set 2):
SK-CO-1; cell growth or viability, ATP luminescence; 300 pM: 104% and 111% and 106%
LCLC-97TM1; cell growth or viability, ATP luminescence; 0.1 µM: 94.6% and 92.8% and 104% and 97.6%
NCI-H1299; cell growth or viability, ATP luminescence; 10 µM: 1.01% and 1.79% and 1.6% and 3.08%
AsPC-1; CellTiter-Glo; 3 nM; relative to: DMSO: 94.7% and 93.7% and 88.8%
NCI-H1299; cell growth or viability, ATP luminescence; 0.3 µM: 113% and 108% and 93.1% and 98.2%
T24; cell growth or viability, ATP luminescence; 1 nM: 96% and 96.9% and 104% and 97%
COLO 320; cell growth or viability, ATP luminescence; 1 nM: 82.2% and 86.7% and 84.9% and 93.4%
